Results collected from several papers.
Each numbered part is a random draw from the data of one study; scales do not carry over between parts. Substitutions count along the parent as printed.

Series 1
Target: Sox, HMG box (Pigoraptor chileana)
Method: Spec-seq
Form: double-stranded DNA, one strand shown
Sample: in vitro
Tested at: not given
Setting: whole probe, mean of replicates
Relative to: not given
Reading: lower = stronger binding
Quantity: relative binding energy
Shared flanks, not repeated: GAGTCGTCTCGTCAGCAC … TCCGTAGAGCACTCAGGTC
Target sequence (chain): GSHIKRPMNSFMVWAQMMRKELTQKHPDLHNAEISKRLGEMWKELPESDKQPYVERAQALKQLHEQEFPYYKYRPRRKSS
AACAGT: -1.53 ln ratio
AGCAGT: 0.0796 ln ratio
CATATG: -0.0833 ln ratio
CATACT: 0.0873 ln ratio
CGTTGT: -1.84 ln ratio
GTCTGT: -1.1 ln ratio
GTTAGT: 0.717 ln ratio
TGGCGT: 0.788 ln ratio

Series 2
Target: Interferon regulatory factor 5, full length, phosphomimetic (IRF5, Homo sapiens, UniProt Q13568-2, residues 1-514, K96S/S451D/S453D/S456D/S462D)
Method: protein-binding microarray
Form: double-stranded DNA, one strand shown
Sample: in vitro
Tested at: 250 nM
Setting: 60-bp whole probe
With: salmon DNA 0.4 mg/ml
Relative to: random background probes
Reading: higher = stronger binding
Quantity: log fluorescence
Shared flanks, not repeated: GCCTAGCAC … GTCTTGATTCGCTTGACGCTGCTG
TCACTTCCCAATTCTCTTACTGTGCTA: 0.735 z-score
TCAGTTTTCTCATTCGTACTGTGCTAG: 1.47 z-score
TCACATGTGCCTTTATAACTGTGCTAG: 0.0811 z-score
TTAGAACTCAGTATCGATTAGTGCTAG: 6.82 z-score
GACGATATCGGAACTGGAGACGTGCTA: 1.42 z-score
GACGGTATCGACTTTCAGGACGTGCTA: 3.29 z-score
TCATGTTTTTCATTGTTACTGTGCTAG: 1.53 z-score
CCATTTCTGTTTTTGCTTTCGTGCTAG: 5.07 z-score

Series 3
Target: CEP164, C-terminal peptide (human)
Method: DHFR complementation, deep sequencing
Sample: yeast
Setting: single substitutions, model-inferred values
Relative to: wild type
Reading: higher = weaker binding
Quantity: binding free energy change
Starting sequence: PDZK1, PDZ domain 2 (human); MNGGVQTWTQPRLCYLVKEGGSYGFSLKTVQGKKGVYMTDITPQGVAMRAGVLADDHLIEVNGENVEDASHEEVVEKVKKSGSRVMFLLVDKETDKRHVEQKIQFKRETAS; partner HNRVKVYRF
V5L: 0.00144 kcal/mol
E64P: 0.692 kcal/mol
L27P: 1.44 kcal/mol
R97N: -0.232 kcal/mol
H98Y: -0.0675 kcal/mol
P43C: 0.344 kcal/mol
E73V: 0.068 kcal/mol
T42D: 0.24 kcal/mol

Single results of other studies
COc1cc(C(=O)N2CCC(N3CCN(C)CC3)CC2)ccc1Nc1ncc2c(n1)N(C)c1ccccc1C(=O)N2C  binding (CSNK1A1L; KINOMEscan; 10 µM; relative to: DMSO control, lower = stronger binding): 100%

Some of these lines once more (series 3):
R97N: -0.232 kcal/mol
L27P: 1.44 kcal/mol
